Measured values from different studies.
Each numbered part is a random draw from the data of one study; scales do not carry over between parts.

Study 1
Target: Centromere-binding protein 1, full length, N-terminal tag (CBF1, Saccharomyces cerevisiae, UniProt P17106, residues 1-351)
Sequence of UniProt P17106 (whole entry, looked up): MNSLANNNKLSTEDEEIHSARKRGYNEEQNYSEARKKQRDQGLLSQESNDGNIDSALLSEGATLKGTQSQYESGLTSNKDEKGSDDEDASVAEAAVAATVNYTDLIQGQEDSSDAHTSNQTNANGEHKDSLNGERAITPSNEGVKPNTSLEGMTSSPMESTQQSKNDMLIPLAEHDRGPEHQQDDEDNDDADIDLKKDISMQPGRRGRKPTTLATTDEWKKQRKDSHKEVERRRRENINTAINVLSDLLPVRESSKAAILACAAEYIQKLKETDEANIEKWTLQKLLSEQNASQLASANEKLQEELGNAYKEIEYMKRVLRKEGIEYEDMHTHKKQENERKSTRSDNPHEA
Technique: protein-binding microarray
Form: double-stranded DNA, one strand shown
Medium: in vitro
Concentration: 0.8 µM
Notes: whole 60-bp probe, no competitor
Direction: higher = stronger binding
Measurement: fluorescence intensity
CCTAACTACTATAACCACGATACATAGCTTCGTACAGTCTTGATTCGCTTGACGCTGCTG: 548 a.u.
CTACTACGGACACTTCTGATGTTGCAAAAGATATTCGTCTTGATTCGCTTGACGCTGCTG: 549 a.u.
GAATGTTTCTCGCGCCATCAGTTTTAGTGGCCGTAGGTCTTGATTCGCTTGACGCTGCTG: 549 a.u.

Study 2
Target: TAR DNA-binding protein 43, full length, His tag (TARDBP, Homo sapiens, UniProt Q13148, residues 1-414)
Technique: RNA Bind-n-Seq
Form: RNA
Medium: in vitro
Concentration: 20 nM
Notes: 6-mer, flanks averaged, single round
Added: 150 mM LiCl
Relative to: input library
Direction: higher = stronger binding
Measurement: 6-mer enrichment (R)
CCGGAG: 0.941
GUGGCC: 1.15
UUUACU: 1.03
AAUCAG: 0.819

Study 3
Target: Prothrombin, mature alpha-thrombin (F2, Homo sapiens, UniProt P00734)
Technique: aptamer microarray, sandwich
Form: DNA with 2'F-ANA
Medium: in vitro
Concentration: 200 nM
Notes: whole 15-mer aptamer, many near background
Added: Cy3 exosite-II aptamer, 400 nM
Direction: higher = stronger binding
Measurement: mean fluorescence intensity
GGTTGGTGTGGTTGG (2'F-ANA at 3 4 5 6 8 9 11 12 13 14): 186 a.u.
GGTTGGTGTGGTTGG (2'F-ANA at 2 4 5 6 7 9 10 13 15): 51.5 a.u.
GGTTGGTGTGGTTGG (2'F-ANA at 3 4 8 12 13 15): 755 a.u.
GGTTGGTGTGGTTGG (2'F-ANA at 1 5 6 7 8 9 10 15): 46.1 a.u.

Other studies, line by line
PhoQ, residues 284 288 289 292 302 303 MLMVEA
fold induction (PhoP, residues 12 14 15 18 19 NYFRM (Escherichia coli, UniProt P23836); Sort-seq, refers to: YFP reporter; E. coli; PhoQ-PhoP variant library, added: 10 µM Mg2+; relative to: high Mg2+ state, higher = stronger signaling): 10.5

Some of these lines once more (study 2):
UUUACU: 1.03
AAUCAG: 0.819
